Assay results of several laboratories.
Each line is one published result; not all experiments were run side by side. “And” joins repeats or separate records; there may be more than shown.

| Compound | cell line | observed | action | technique | time | notes | IC50 |
| --- | --- | --- | --- | --- | --- | --- | --- |
| CCCCC(=O)Nc1ccc(-c2cnc3ccn(CCC)c(=O)c3c2)cn1 | HCC827 | cell growth or viability | – | CCK-8 | 72 h | – | 1.7 µM |
| COC(=O)CN=c1scc(-c2ccccc2)n1-c1ccc(Cl)cc1 | HepG2 | cell growth or viability | – | MTT | 72 h | – | 8.46 µM |
| Cc1nc(NC(=O)N2CCC[C@H]2C(N)=O)sc1-c1ccnc(C(C)(C)C(F)(F)F)c1 | B16 | cell growth or viability | – | MTT | – | – | 20.4 µM |
| COc1cccc2c1C(=O)c1c(O)c3c(c(O)c1C2=O)C[C@@](O)(C(=O)CO)C[C@@H]3O[C@H]1C[C@H](N)[C@H](O)[C@H](C)O1 | A549 | cell growth or viability | – | MTT | 75 h | – | 0.24 µM |
| NC(=O)NOCCCCCCCCCCCCCC[P+](c1ccccc1)(c1ccccc1)c1ccccc1 | HCT-116 | cell growth or viability | – | imaging | – | – | 0.9 µM |
| C[C@]12O[C@H](C[C@]1(O)CO)n1c3ccccc3c3c4c(c5c6ccccc6n2c5c31)CNC4=O | MV4-11 | cell growth or viability | – | ATP luminescence | 72 h | – | 0.0063 µM |
| CCCn1cnc2ccc(-c3ccc(N4CCCCCCC4=O)nc3)cc2c1=O | HCC827 | cell growth or viability | – | CCK-8 | 72 h | – | > 10 µM |
| COc1cc2ncnc(Nc3ccc4c(c3)/C(=C/c3ccccc3)C(=O)N4C)c2cc1OC | BEAS-2B | cell growth or viability | – | MTT | – | – | 12.3 µM |
| CCCCn1cnc2ccc(-c3ccc(NC(=O)CCC)nc3)cc2c1=O | HCC827 | cell growth or viability | – | CCK-8 | 72 h | – | 3.33 µM |
| COc1cccc2c1C(=O)c1c(O)c3c(c(O)c1C2=O)C[C@@](O)(C(=O)CO)C[C@@H]3O[C@H]1C[C@H](N)[C@H](O)[C@H](C)O1 | A549 | cell growth or viability | – | WST-1 | 72 h | – | 0.45 µM |
| COc1cc2nc(N3CCN(C(=O)C4COc5ccccc5O4)CC3)nc(N)c2cc1OC (centres unmarked) | HONE1 | cell growth or viability | – | MTT | 48 h | – | 25.8 µM |
| CCCn1cnc2ccc(-c3ccc(NC(=O)CC4CCC4)nc3)cc2c1=O | NCI-H1975 | cell growth or viability | – | CCK-8 | 72 h | – | 1.84 µM |
| COc1cc2ncnc(Nc3ccc4c(c3)/C(=C/c3cccc(Cl)c3)C(=O)N4C)c2cc1OC | BEAS-2B | cell growth or viability | – | MTT | – | – | 9.74 µM |
| COC1=C(OC)[C@H](O)[C@H](C/C=C(\C)CC/C=C(\C)CCC=C(C)C)[C@@H](C)C1=O | A549 | cell growth or viability | – | MTS | – | – | 8.95 µM and 6.95 µM and 4.05 µM |
| CCCC(=O)Nc1ccc(-c2ccc3ncn(CCC)c(=O)c3c2)cn1 | HCC827 | cell growth or viability | – | CCK-8 | 72 h | – | 0.18 µM |
| C[C@H]1[C@H](C)CC[C@]2(CO)CC[C@]3(C)C(=CC[C@@H]4[C@@]5(C)CC[C@H](O)C(C)(C)[C@@H]5CC[C@]43C)[C@H]12 | RAW264.7 | NO release | inhibitor | Griess | – | LPS-stimulated | > 100 µM |
| Cc1nc(Nc2ccc3c(c2)/C(=C/c2ccccc2C)C(=O)N3)c2ccccc2n1 | B16 | cell growth or viability | – | MTT | – | – | 1.39 µM |
| CCCCn1cnc2ccc(-c3ccc(NC(=O)Nc4ccc(OC(F)(F)F)cc4)nc3)cc2c1=O | HCC827 | cell growth or viability | – | CCK-8 | 72 h | – | > 10 µM |
| COc1ccc(NC(=O)NCc2cn(Cc3ccccc3C)nn2)cc1 | Huh-7 | cell growth or viability | – | CCK-8 | 72 h | – | > 50 µM |
| COc1cc2ncnc(Nc3ccc4c(c3)/C(=C/c3ccccc3)C(=O)N4)c2cc1OC | B16 | cell growth or viability | – | MTT | – | – | > 50 µM |
| COC(=O)CN=c1scc(-c2ccccc2)n1-c1ccc(C)cc1 | HepG2 | cell growth or viability | – | MTT | 72 h | – | 49.3 µM |
| CO[C@]12C[C@@H](COC(=O)c3cncc(Br)c3)CN(C)[C@@H]1Cc1cn(C)c3cccc2c13 | HONE1 | cell growth or viability | – | MTT | 48 h | – | 19.4 µM |
| CC(C)C[C@H](NC(=O)[C@H](Cc1ccccc1)NC(=O)c1cnccn1)B(O)O | NCI-H838 | cell growth or viability | – | ATP luminescence | – | – | 0.018 µM |
| Cc1nc(N(Cc2ccccc2)c2ccc3c(c2)/C(=C/c2ccccc2)C(=O)N3Cc2ccccc2)c2ccccc2n1 (mixture of isomers) | BEAS-2B | cell growth or viability | – | MTT | – | – | 19.2 µM |
| C=C(F)C(=O)N1CCN(c2nc(OC[C@@H]3CCCN3C)nc3c2CCN(c2cccc4cccc(Cl)c24)C3)C[C@@H]1CC#N | NCI-H358 | cell growth or viability | – | ATP luminescence | – | – | 0.0723 µM |
| CCCCn1cnc2ccc(-c3ccc(NC(=O)C4CCC4)nc3)cc2c1=O | NCI-H1975 | cell growth or viability | – | CCK-8 | 72 h | – | 1.49 µM |
| Cc1nc(Nc2ncc(C(=O)Nc3c(C)cccc3Cl)s2)cc(N2CC[C@H](O)C2)n1 | SU-DHL-1 | cell growth or viability | – | ATP luminescence | 72 h | – | > 10 µM |
| CCCCCC(=O)Nc1ccc(-c2ccc3ncn(CCCC)c(=O)c3c2)cn1 | NCI-H1975 | cell growth or viability | – | CCK-8 | 72 h | – | 0.48 µM |
| Cc1nc(N(C)c2ccc3c(c2)/C(=C/c2ccccc2Cl)C(=O)N3C)c2ccccc2n1 | B16 | cell growth or viability | – | MTT | – | – | 5.96 µM |
